Results gathered from unrelated publications.
Protocols differ between the studies behind these lines. Several values in a cell are separate wells, animals, samples, runs or records.
IL1RL2: Interleukin-1 receptor-like 2 (IL1RL2, Homo sapiens, UniProt Q9HB29)
Sequence of UniProt P28482 (whole entry, looked up): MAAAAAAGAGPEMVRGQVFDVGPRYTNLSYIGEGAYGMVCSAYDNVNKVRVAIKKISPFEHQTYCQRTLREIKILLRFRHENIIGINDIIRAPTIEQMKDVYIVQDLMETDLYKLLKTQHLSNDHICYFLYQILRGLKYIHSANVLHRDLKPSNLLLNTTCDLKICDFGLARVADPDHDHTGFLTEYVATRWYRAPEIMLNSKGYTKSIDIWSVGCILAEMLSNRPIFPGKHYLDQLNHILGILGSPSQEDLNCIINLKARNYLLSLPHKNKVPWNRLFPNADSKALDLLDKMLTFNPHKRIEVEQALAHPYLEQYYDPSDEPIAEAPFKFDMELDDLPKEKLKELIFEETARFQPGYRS
Sequence of UniProt Q9HB29 (whole entry, looked up): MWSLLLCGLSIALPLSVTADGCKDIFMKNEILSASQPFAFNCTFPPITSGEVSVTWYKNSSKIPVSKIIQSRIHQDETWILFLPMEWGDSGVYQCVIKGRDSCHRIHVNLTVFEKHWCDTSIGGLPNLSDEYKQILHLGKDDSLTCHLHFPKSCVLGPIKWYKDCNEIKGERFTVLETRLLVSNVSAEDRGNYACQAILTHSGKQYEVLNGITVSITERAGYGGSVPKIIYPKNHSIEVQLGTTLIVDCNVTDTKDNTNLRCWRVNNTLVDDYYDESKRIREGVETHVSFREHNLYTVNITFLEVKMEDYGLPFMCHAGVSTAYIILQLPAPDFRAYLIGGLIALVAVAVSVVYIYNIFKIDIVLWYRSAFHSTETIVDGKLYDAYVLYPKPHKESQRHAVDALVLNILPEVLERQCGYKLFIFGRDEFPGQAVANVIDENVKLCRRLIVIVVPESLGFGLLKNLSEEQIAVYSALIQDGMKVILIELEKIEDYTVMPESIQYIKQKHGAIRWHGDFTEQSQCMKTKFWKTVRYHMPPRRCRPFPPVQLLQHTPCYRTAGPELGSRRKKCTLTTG
Sequence of UniProt O96017 (whole entry, unmodified, looked up): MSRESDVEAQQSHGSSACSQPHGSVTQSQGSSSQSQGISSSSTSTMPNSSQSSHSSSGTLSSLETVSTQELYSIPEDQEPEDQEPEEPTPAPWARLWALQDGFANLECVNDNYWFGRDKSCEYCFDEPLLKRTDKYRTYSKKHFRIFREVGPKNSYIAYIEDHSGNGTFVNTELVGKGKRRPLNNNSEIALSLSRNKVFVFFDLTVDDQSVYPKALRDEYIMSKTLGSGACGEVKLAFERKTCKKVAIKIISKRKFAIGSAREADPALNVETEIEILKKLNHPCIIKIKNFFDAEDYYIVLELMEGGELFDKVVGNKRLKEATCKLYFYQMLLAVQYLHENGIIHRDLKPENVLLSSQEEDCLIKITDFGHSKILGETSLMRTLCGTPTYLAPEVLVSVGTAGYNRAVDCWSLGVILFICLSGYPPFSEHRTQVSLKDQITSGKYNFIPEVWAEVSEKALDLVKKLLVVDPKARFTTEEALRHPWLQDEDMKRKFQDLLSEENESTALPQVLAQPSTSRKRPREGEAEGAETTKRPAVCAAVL
Sequence of UniProt O75417 (whole entry, looked up): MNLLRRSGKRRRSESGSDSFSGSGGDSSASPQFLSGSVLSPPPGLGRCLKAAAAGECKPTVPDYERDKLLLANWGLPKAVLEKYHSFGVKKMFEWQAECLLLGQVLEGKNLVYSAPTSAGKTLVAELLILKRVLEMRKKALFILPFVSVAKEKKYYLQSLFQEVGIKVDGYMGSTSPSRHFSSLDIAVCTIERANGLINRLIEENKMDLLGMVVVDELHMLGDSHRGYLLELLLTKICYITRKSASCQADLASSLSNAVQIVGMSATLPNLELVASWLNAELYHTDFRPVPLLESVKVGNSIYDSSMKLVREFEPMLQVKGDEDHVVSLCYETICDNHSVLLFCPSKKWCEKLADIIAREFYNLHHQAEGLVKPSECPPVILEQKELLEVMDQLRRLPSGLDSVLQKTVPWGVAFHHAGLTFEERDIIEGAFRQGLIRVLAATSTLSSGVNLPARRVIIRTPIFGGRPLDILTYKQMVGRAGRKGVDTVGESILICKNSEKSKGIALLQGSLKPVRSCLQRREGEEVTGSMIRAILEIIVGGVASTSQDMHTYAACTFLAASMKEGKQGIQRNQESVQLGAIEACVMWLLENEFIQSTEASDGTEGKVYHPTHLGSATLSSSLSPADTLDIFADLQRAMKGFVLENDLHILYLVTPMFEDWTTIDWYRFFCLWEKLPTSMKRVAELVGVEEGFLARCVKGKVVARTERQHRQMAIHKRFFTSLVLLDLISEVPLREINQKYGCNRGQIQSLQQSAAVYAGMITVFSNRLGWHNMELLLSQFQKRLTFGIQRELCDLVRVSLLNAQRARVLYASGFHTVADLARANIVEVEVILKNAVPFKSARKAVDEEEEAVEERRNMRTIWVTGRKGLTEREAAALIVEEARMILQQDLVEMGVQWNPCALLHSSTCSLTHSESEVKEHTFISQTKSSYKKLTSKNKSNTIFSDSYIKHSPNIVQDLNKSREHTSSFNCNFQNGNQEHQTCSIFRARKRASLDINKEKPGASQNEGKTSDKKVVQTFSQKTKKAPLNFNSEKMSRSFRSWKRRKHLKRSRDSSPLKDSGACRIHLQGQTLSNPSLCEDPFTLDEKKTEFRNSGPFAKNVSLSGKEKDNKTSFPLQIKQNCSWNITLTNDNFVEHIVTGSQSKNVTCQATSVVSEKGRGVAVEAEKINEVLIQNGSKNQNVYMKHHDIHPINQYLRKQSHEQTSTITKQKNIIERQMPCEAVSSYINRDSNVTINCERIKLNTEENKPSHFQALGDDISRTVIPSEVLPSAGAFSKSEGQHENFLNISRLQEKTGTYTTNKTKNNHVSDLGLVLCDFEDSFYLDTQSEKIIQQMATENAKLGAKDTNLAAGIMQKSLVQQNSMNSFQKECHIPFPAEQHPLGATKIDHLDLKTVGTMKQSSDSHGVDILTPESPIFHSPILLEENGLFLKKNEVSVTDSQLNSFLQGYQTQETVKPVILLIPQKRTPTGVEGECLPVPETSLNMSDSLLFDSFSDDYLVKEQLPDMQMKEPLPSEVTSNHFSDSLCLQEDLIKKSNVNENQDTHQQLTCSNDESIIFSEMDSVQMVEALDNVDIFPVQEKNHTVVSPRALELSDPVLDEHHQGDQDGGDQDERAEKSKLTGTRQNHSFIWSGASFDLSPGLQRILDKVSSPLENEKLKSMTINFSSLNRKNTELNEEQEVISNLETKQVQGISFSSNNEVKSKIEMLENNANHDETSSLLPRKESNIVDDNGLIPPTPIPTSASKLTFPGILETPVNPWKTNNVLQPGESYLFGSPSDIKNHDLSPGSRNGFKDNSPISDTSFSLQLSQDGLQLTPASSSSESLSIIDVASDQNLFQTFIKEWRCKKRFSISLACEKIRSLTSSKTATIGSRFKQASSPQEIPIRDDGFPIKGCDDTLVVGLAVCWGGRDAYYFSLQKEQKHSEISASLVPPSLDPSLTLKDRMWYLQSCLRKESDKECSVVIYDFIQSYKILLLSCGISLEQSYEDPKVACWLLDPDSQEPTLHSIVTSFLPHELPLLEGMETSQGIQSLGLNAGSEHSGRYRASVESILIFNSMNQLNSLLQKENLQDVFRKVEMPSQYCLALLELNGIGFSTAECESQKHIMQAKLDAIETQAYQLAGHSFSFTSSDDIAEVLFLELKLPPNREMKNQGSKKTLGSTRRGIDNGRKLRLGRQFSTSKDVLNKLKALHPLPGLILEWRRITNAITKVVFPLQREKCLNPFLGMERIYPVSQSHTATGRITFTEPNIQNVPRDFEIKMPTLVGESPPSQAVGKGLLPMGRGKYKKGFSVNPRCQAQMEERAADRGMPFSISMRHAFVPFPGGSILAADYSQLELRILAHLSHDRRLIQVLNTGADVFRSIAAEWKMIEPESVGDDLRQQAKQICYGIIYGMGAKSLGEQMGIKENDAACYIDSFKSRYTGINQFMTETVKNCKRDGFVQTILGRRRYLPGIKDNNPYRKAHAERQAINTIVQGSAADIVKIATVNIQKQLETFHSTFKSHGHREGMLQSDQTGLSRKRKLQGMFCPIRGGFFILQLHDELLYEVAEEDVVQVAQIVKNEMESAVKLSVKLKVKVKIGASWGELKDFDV
Sequence of UniProt Q8TD08 (whole entry, looked up): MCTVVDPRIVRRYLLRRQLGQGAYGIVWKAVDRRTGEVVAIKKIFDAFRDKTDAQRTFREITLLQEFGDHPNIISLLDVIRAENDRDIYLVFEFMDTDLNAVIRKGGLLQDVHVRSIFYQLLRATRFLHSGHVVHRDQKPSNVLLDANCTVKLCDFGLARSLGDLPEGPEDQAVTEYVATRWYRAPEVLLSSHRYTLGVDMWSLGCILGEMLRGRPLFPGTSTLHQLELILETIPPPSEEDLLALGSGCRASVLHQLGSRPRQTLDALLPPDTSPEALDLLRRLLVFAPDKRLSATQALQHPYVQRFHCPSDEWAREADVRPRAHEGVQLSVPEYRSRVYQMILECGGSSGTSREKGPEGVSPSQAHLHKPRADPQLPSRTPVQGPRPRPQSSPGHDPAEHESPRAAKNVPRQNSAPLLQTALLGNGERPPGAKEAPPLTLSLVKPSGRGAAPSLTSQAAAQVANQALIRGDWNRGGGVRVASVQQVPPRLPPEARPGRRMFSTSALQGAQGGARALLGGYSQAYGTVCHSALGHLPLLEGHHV
Sequence of UniProt P45983 (whole entry, looked up): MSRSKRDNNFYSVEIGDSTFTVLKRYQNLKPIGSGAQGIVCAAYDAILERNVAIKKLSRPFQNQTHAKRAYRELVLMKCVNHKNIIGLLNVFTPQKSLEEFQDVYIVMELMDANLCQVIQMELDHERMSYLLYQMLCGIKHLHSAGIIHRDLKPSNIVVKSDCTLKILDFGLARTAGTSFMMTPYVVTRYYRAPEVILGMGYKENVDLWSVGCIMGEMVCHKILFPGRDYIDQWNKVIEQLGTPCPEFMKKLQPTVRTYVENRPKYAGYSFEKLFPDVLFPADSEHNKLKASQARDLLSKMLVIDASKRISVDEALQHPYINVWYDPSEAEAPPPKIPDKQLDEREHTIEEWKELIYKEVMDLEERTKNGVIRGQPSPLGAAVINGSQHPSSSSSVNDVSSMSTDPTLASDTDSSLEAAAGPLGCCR

| Compound | target or system | test | test system | conditions | how to read | endpoint | result |
| --- | --- | --- | --- | --- | --- | --- | --- |
| COC(=O)[C@]1(C(C)C)C=C(C(=O)Nc2cccc(C(=O)Nc3ccc(Nc4nccc(-c5cccnc5)n4)c(C)c3)c2)C(=O)CC1 | MAPK8 (Homo sapiens, UniProt P45983) | kinase activity, inhibitor | – | 1.646 µM, unit not given, together with: 10 mM glutathione | reference: no inhibitor | remaining activity | 0.393 |
| COc1ccccc1-c1ccncc1C(=O)Nc1nnc(OCc2ccc(Cl)cc2)s1 | DNA polymerase theta, helicase domain (POLQ, Homo sapiens, UniProt O75417) | ATPase activity, ADP-Glo | – | 0.48 µM, together with: ATP 400 µM | – | remaining activity | 33% |
| COC(=O)[C@@]1(C)C=C(C(=O)Nc2cccc(C(=O)Nc3ccc(Nc4nccc(-c5cccnc5)n4)c(C)c3)c2)C(=O)CC1 | MAPK1 (Homo sapiens, UniProt P28482) | enzyme activity, inhibitor | – | 0.5487 µM, unit not given | reference: vehicle | remaining activity | 0.934 and 0.886 and 0.958 |
| Nc1ncc(-c2cc(-c3cnn(CC(F)(F)F)c3)ncc2F)nc1C(=O)NC1CNCC(F)C1 (stereo not shown) | MAST3 (Homo sapiens, UniProt O60307) | enzyme activity | – | 1 µM | reference: DMSO control | remaining activity | 97.5% |
| C[C@](C(=O)NC1CCOCC1)(c1cncnc1)N(C(=O)[C@H](F)Cl)c1ccc(OC(F)(F)Cl)cc1 | Transmembrane protease serine 6 (Homo sapiens, UniProt Q8IU80) | enzyme activity, inhibitor | – | 10 µM | – | remaining activity | 111% |
| CC(=O)Nc1ccc(C2CCCCC2)cc1 | – | liver microsome stability | cynomolgus liver microsomes | 1 µM | – | hepatic clearance | 39 mL/min/kg |
| N#Cc1cnc2sc(C(=O)O)cc2c1N1CCc2[nH]nc(C(=O)N[C@@H](CC(=O)NCCOCCN3CCOCC3)c3cccc(Br)c3)c2C1 | IL1RL2 | reporter gene (SEAP), inhibitor, HEK-Blue IL-36R reporter | HEK-Blue IL-36R cells | 0.14 µM, 6 h, together with: IL36G 0.01 ng/mL | – | remaining activity | 92.4% |
| COc1ccc(NC(=O)Nc2ccc3c(c2)C(=O)N(C(C)CO)CC(C)C(CN(C)Cc2ccc4c(c2)OCO4)O3)cc1 (stereo not shown) | ABL1 (Homo sapiens, UniProt P00519, T315I) | kinase activity | – | 0.03 µM | reference: control | remaining activity | 98% |
| Cc1ccc(-c2ccc([C@H]3[C@@H](F)[C@@H](F)C[C@@H](F)[C@H]3F)cc2)cn1 | – | hepatocyte stability | cryopreserved rat hepatocytes | 1 µM | – | hepatic clearance | 44 mL/min/kg |
| Cc1cccc(-c2ccc3nc(NC(=O)C4CCOCC4)nn3c2)c1 | MAPK15 (Homo sapiens, UniProt Q8TD08) | enzyme activity, Dundee kinase panel | – | 10 µM | – | remaining activity | 83% |
| O=C=[N][Ru-4]123([n]4c5ccc(O)cc5c5c6c(c7cc(F)c[n+]1c7c54)C(=O)NC6=O)[S+]1CC[S+]2CC[S+]3CC1 (stereo not shown) | CHEK2 (Homo sapiens, UniProt O96017, R145W) | enzyme activity | – | 100 nM, human enzyme, together with: 10 µM ATP | reference: untreated | remaining activity | 88% |
| Cc1cc(C(=O)Nc2nc3cccc(C)c3n2[C@H]2CCCCN(C(=O)/C=C/CN(C)C)C2)ccn1 | CDC2-like kinase 1 (Trypanosoma brucei brucei, UniProt Q382U0) | kinase activity, ADP-Glo | – | 0.1562 µM | – | remaining activity | 40.6% |
| CC(C)[C@@H]1NC(=O)[C@H](Cc2ccccc2)NC(=O)CSC[C@@H](C(N)=O)NC(=O)[C@H](CCC(=O)O)NC(=O)[C@H](CO)NC(=O)[C@H](Cc2c[nH]c3cccc(Cl)c23)NC(=O)[C@H](C2CCCCC2)NC(=O)[C@H](C(C)C)NC(=O)[C@H](Cc2ccc(O)cc2)NC(=O)[C@H](CC(=O)O)NC(=O)[C@H](Cc2c[nH]c3ccccc23)NC(=O)[C@H](Cc2ccc(N)nc2)NC(=O)[C@H](Cc2c[nH]c3ccc(Cl)cc23)NC(=O)[C@H](CCC(=O)O)NC1=O | IL1RL2 | reporter gene (SEAP), inhibitor, HEK-Blue IL-36R reporter | HEK-Blue IL-36R cells | 0.14 µM, 6 h, together with: IL-36β 30 ng/mL | – | remaining activity | 86.1% |

A few entries again:
| Compound | target or system | test | test system | conditions | how to read | endpoint | result |
| --- | --- | --- | --- | --- | --- | --- | --- |
| Nc1ncc(-c2cc(-c3cnn(CC(F)(F)F)c3)ncc2F)nc1C(=O)NC1CNCC(F)C1 (stereo not shown) | MAST3 (Homo sapiens, UniProt O60307) | enzyme activity | – | 1 µM | reference: DMSO control | remaining activity | 97.5% |
